Measured values of several laboratories.
A part holds a random share of what one study measured. Changes are numbered by the printed parent chain.

Study 1
Target: POU, POU domain (Salpingoeca helianthica)
Technique: Spec-seq
Molecule type: double-stranded DNA, one strand shown
Medium: in vitro
Tested at: not given
Notes: whole probe, mean of replicates
Baseline: not given
Direction: lower = stronger binding
All sequences stand within: GAGTCGTCTCGTCAGCAC … CCGTAGAGCACTCAGGTC
Target sequence (chain): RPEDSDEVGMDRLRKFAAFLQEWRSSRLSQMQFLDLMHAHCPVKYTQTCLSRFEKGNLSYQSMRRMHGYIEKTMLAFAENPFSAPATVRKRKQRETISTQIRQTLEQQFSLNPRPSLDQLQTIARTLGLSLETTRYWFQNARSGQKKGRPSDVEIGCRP
Sequence	relative binding energy
ATGCGTAG	1.38 ln ratio
ATTATTAT	-0.266 ln ratio
GGGGTAAT	0.66 ln ratio
ACGATAAT	0.347 ln ratio
TTACTAAT	0.293 ln ratio
ATGGAAAT	1.21 ln ratio
GTCATAAT	0.451 ln ratio
TTGATAAT	0.148 ln ratio
ATGCTGAG	1.35 ln ratio
ATGCCGAC	1.36 ln ratio
TCAATAAT	-0.12 ln ratio
ATAAGCAT	0.875 ln ratio
ATGCAATT	0.67 ln ratio
ATCCTCAT	1.38 ln ratio
ATGCATCT	0.991 ln ratio
CGTATAAT	0.533 ln ratio
ATGCGGGT	1.34 ln ratio
ATGCGTAC	1.33 ln ratio
CAATTAAT	-1.61 ln ratio
TGCCTAAT	0.764 ln ratio
ATGCCTCT	1.04 ln ratio

Study 2
Target: Histone acetyltransferase KAT6A, both winged helices, GST fusion (KAT6A, Homo sapiens, UniProt Q92794, residues 1-181)
Technique: protein binding microarray
Molecule type: double-stranded DNA, one strand shown
Medium: in vitro
Tested at: not given
Notes: 8-mer, flanks averaged, mean of 2 arrays, mostly near background
Baseline: not given
Direction: higher = stronger binding
Construct (chain): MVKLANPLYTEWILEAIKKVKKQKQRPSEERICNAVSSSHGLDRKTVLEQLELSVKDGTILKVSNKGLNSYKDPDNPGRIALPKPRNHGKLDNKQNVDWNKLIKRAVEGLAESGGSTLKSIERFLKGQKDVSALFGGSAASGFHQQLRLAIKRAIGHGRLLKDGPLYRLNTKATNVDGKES
Sequence	E-score
ACCCTTGG	-0.142
CACAGGGA	-0.143
ACCGTAGC	0.0702
ATGATCTA	-0.0504
GAATGAAA	0.0316
AGCCAGTC	-0.16
CTACTCAG	-0.142
ACATCAAT	-0.12
CAATTCAC	0.0738
ATCTATAC	-0.0132
AGGGCATA	-0.256
CTGGAAAC	-0.0664
GGCCTGAA	0.0215
GGTTGCGA	0.0271
CCTGCAGA	-0.127
CAAAACGC	0.181
CCGCTCCG	0.301
AGTATACA	-0.0928

Study 3
Target: Sal-like protein 4, full length isoform A (SALL4, Homo sapiens, UniProt Q9UJQ4, residues 1-1053)
Sequence of UniProt Q9UJQ4 (whole entry, looked up): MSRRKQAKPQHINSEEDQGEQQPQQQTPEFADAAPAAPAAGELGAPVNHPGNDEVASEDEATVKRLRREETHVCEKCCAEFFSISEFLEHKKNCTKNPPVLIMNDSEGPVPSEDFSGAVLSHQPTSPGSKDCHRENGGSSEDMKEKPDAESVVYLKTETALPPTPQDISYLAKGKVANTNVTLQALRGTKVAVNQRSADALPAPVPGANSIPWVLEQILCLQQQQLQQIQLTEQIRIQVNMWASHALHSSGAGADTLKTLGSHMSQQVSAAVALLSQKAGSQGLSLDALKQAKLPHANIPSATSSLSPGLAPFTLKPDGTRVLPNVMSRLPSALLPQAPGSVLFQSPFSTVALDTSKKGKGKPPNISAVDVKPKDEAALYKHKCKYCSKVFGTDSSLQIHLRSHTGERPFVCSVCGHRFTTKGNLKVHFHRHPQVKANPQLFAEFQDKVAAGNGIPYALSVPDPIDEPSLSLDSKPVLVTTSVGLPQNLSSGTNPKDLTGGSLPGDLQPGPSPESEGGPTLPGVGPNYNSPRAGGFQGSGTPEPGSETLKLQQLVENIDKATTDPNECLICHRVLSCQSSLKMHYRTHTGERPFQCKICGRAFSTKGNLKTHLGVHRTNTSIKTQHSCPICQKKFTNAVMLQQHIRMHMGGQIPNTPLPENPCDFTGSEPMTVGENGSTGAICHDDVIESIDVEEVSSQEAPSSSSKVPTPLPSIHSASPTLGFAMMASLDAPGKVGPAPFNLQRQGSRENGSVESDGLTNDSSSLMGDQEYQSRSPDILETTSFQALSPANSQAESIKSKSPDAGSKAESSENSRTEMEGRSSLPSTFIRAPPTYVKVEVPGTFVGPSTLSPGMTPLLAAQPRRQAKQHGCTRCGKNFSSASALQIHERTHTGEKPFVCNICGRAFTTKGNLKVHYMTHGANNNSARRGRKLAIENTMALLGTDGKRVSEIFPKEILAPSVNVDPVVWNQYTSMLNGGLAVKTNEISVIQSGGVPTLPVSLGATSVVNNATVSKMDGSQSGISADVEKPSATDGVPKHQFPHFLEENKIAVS
Technique: universal PBM
Molecule type: double-stranded DNA, one strand shown
Medium: in vitro
Tested at: 600 nM
Notes: 8-mer, flanks averaged, mean of replicates
Direction: higher = stronger binding
Sequence	E-score
ACGGTTAA	0.178
GCCCCAGC	-0.365
CTACCGAC	-0.12
GAATATGA	0.295
GCAGCGGC	-0.371
AGACCAAC	-0.0402
AGTGGATA	0.0405
AAGTTTCC	0.0941
GCAATGGC	-0.193
GGTCCCGA	-0.35
CCTCCACC	-0.238
GTTCAAGA	0.0432
CGAACCCC	-0.344
ACGAAAAT	0.305
AAAGACCC	-0.0415
GTCACCGA	-0.282
GCAAGGAA	-0.168
CCCAAACC	-0.222
CTCTTCAG	-0.123
ACCTCGAC	0.00165
GCTGGACA	-0.152
CGAAAGCA	-0.0219
AGCCCCGG	-0.433
ACTCACTG	-0.0706

Study 4
Target: Ras GTPase-activating protein-binding protein 1, RRM domain (G3BP1, Homo sapiens, UniProt Q13283)
Sequence of UniProt Q13283 (whole entry, looked up): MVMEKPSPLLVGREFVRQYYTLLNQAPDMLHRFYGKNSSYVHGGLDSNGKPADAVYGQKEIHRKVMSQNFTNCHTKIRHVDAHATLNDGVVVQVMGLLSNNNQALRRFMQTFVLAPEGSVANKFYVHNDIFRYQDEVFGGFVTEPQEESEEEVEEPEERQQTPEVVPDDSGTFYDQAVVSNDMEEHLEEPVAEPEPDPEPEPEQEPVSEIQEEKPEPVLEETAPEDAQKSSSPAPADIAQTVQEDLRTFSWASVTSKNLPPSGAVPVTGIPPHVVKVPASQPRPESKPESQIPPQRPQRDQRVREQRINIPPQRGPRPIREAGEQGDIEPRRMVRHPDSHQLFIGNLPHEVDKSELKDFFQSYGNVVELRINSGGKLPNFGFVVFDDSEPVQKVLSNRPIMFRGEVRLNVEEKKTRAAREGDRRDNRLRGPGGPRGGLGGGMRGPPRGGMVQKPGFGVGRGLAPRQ
Technique: RNA Bind-n-Seq
Molecule type: RNA
Medium: in vitro
Tested at: 1 µM
Notes: whole 134-nt RNA, ends assumed
Added: 150 mM KCl
Baseline: input library
Direction: higher = stronger binding
All sequences stand within: GGGAGUUCUACAGUCCGACGAUC … UGGAAUUCUCGGGUGUCAAGG
Sequence	log2 enrichment
CAAGUCCUGUGCUACACAUCGUAUGUACCGAAUCGGUUUUUGGAAAGGUUUUUGGAAAGUAUUAUGUUACGCCGUUCGGAUCUGCACUUC	-0.333
CUGUGCUACACAUCGUAUGUACCGAAUCGGGCCCCCCCGGGCCCCCCCGGGGCCCCCCCGGAAAGUAUUAUGUUACGCCGUUCGGAUCUG	-0.613
GUCCUGUGCUACACAUCGUAUGUACCGAAUCGGGGUGGGGAAAAAGGGGUUUUUGGGGAAAGUAUUAUGUUACGCCGUUCGGAUCUGCAC	1.03
CCUGUGCUACACAUCGUAUGUACCGAAUCGGGGUUUUUUGGGUUUUUUGGUUUUUUGGGGAAAGUAUUAUGUUACGCCGUUCGGAUCUGC	-0.302
CCUCAAGUCCUGUGCUACACAUCGUAUGUACCGAAUCGGAAAAAGGUGGUGGAAAGUAUUAUGUUACGCCGUUCGGAUCUGCACUUCCAG	-0.137
GCAGGAAGUAAAAACAAAUGGAAAUGCUUCGGAUAGUGGCAGGGGUGGGGGUUGCUAAGGAAAGGGUGGGAUGGGAGUGGGUAAAAAAUU	1.17
UCCUGUGCUACACAUCGUAUGUACCGAAUCGUGUGUGUGUGUGUGUGUGUGUGUGUGUGAAAGUAUUAUGUUACGCCGUUCGGAUCUGCA	0.0869
CAAGUCCUGUGCUACACAUCGUAUGUACCGAAUCGGGAGGGUUUGGGAAAAAGGGAAAGUAUUAUGUUACGCCGUUCGGAUCUGCACUUC	0.834
UCCUCAAGUCCUGUGCUACACAUCGUAUGUACCGAAUCGGGCGGCGGGCGGAAAGUAUUAUGUUACGCCGUUCGGAUCUGCACUUCCAGC	-0.258

Study 5
Target: ABI1, truncated, D143A, DHFR fusion (Arabidopsis thaliana)
Technique: DHFR PCA, deep sequencing
Medium: yeast
Notes: methotrexate growth selection, single substitutions
Added: (+)-ABA 0.11 µM
Baseline: wild-type fitted maximum
Direction: higher = stronger binding
Starting sequence: PYL1, truncated, DHFR fusion (Arabidopsis thaliana); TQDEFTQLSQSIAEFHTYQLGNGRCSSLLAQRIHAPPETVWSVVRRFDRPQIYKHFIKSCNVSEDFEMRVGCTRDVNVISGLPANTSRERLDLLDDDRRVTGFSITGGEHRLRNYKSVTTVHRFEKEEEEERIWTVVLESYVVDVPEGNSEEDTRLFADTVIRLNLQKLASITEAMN
Substitution	relative binding score [%]
V100C	26.6
V161T	14.2
A158P	-6.63
A35C	6.24
R99L	58.3
Q7K	28.8
L93V	39.7
E130W	2.28
V76K	-5.04
C25Q	-9.79
F103I	-2.08
E131C	39.9
N85A	58.2
I162K	5.79
N177F	39.9
E64P	52.6
T6C	27.4
E128I	9.28

Some of these lines once more (study 3):
Sequence	E-score
AAGTTTCC	0.0941
GCAATGGC	-0.193
GGTCCCGA	-0.35
CCTCCACC	-0.238
GTTCAAGA	0.0432
CGAACCCC	-0.344
ACGAAAAT	0.305
AAAGACCC	-0.0415
GTCACCGA	-0.282
GCAAGGAA	-0.168
CCCAAACC	-0.222
CTCTTCAG	-0.123
ACCTCGAC	0.00165
